Assay results collected from several papers.
Protocols differ between the studies behind these lines. ± marks the error that the study gave.

CC(C)[C@H](NC(=O)[C@H](Cc1c[nH]c2ccccc12)NC(=O)[C@H](Cc1ccccc1)NC(=O)[C@@H](NC(=O)[C@@H](NC(=O)[C@H](CCCCN)NC(=O)[C@@H](N)CCCCN)C(C)C)C(C)C)C(=O)N[C@@H](CCCCN)C(=O)N[C@@H](Cc1ccccc1)C(=O)N[C@@H](CCCCN)C(N)=O  cytokine level (ELISA, measured: IL-1β; mouse, blood; iv, 500 µg/kg, 5 days): 0.47 ± 0.03 ng/mL
CC(C)C[C@H](NC(=O)[C@H](CCCCN)NC(=O)[C@H](CCC(=O)O)NC(=O)[C@H](C)NC(=O)[C@@H](NC(=O)[C@H](CCCCN)NC(=O)[C@H](CC(=O)O)NC(=O)[C@H](Cc1ccc(O)cc1)NC(=O)[C@H](Cc1ccccc1)NC(=O)[C@H](C)NC(=O)[C@H](CCCCN)NC(=O)[C@H](CC(C)C)NC(=O)[C@H](Cc1c[nH]c2ccccc12)NC(=O)[C@@H](N)CC(=O)O)C(C)C)C(=O)N[C@@H](CCCCN)C(=O)N[C@@H](CCC(=O)O)C(=O)N[C@@H](C)C(=O)N[C@@H](Cc1ccccc1)C(=O)N1CCC[C@H]1C(=O)N[C@@H](CC(=O)O)C(=O)N[C@@H](Cc1c[nH]c2ccccc12)C(=O)N[C@@H](C)C(=O)N[C@@H](CCCCN)C(=O)N[C@@H](C)C(=O)N[C@@H](C)C(=O)N[C@@H](Cc1ccc(O)cc1)C(=O)N[C@@H](CC(=O)O)C(=O)N[C@@H](CCCCN)C(=O)N[C@@H](C)C(=O)N[C@@H](C)C(=O)N[C@@H](CCC(=O)O)C(=O)N[C@@H](CCCCN)C(=O)N[C@@H](C)C(=O)N[C@@H](CCCCN)C(=O)N[C@@H](CCC(=O)O)C(=O)N[C@@H](C)C(=O)N[C@@H](C)C(=O)O  half-life (cynomolgus monkey female, plasma; intravenous infusion, 75 mg/kg, day 1, 30 min infusion): 4.2 h
COC(=O)C[C@](O)(CCCC(C)(C)OC(C)=O)C(=O)O[C@@H]1C(OC)=C[C@]23CCCN2CCc2cc4c(cc2[C@H]13)OCO4  tissue concentration (CD1 mouse, bone marrow; oral, 1 mg/kg, 2 h): 193 ng/mL
CCCCCCCC/C=C\CCCCCCCCOP(O)(O)=S.N  AUC(0-inf) (mouse, female, nonirradiated; sc, dose not given): 1150 ng·h/mL
CC(C)(C)c1ccc(COc2cc3c(=O)c(C(=O)NCCNCCO)cn(Cc4ccccc4)c3cc2Cl)cc1  microsomal CLint (metabolic stability; male CD-1 mouse, liver microsomes; 1 µM): < 11.6 µL/min/mg
CCNc1cc2[o+]c3cc(NCC)c(C)cc3c(-c3ccccc3C(=O)OCCOCC[18F])c2cc1C  radioactivity concentration (PET; rat, heart; dose not given, 5 min p.i.): 69 ± 5 kBq/cm³
O=C(NCCCCCCn1ccc2ccccc21)Oc1ccccc1  parent remaining (rat liver S9 fraction; 30 min, with: NADPH): 50 ± 2%
CCCC(=O)OC1O[C@@H]2O[C@@]3(C)CC[C@H]4[C@H](C)CCC([C@H]1C)[C@@]24OO3 (stereo partly drawn)  dead embryos (Tg(fli1:EGFP) zebrafish embryos; 15 µg/mL, up to 48 hpf): 1 count
CC(=O)N(O)CCCP(=O)(O)O  approximate LD50 (Wistar rats; oral, 14 days observation, single dose): > 3000 mg/kg
CC=C(C)C(=O)OC1C2C3(C)CCC(OC4CC(OC)C(OC5OC(C)C(O)C(OC)C5O)C(C)O4)CC3CCC23OC32CCC(C(C)=O)C2(C)C1OC(C)=O (stereo not drawn)  efflux ratio (Caco-2; 10 µM): 1.43
C[C@H](NCc1ccc(-c2ccc(C(F)(F)F)cc2)cc1)C(N)=O  toxicity (Sprague Dawley rat; oral, 200 mg/kg/day, 14 days): not toxic
[11CH3]n1c(=O)n(CCCO)c(=O)c2c1nc(Oc1cccc(OC(F)(F)F)c1)n2Cc1ccc(Cl)cc1  tracer uptake (ex vivo biodistribution; Sprague Dawley rat, heart; 30 min post injection): 1.04 ± 0.05 %ID/g
NC(=O)N[C@H]1CC[C@H](CCN2CCN(c3cccc(Cl)c3Cl)CC2)CC1  Tmax (Wistar rat, male, plasma and brain; oral, 0.9 mg/kg): 1 to 2 h
CC(C)(CCCC/C=C/CCCCCC(C)(C)C(=O)O)C(=O)O  plasma protein binding (humans plasma): > 99.8%
CC[C@H](C)C(=O)N1CCC(NC(=O)Nc2ccc(OC(F)(F)F)c(F)c2)CC1  subjects with laryngitis TEAE (healthy volunteers; oral, 8 mg single dose): 0%
CCCCCCCCCCCCCCC(=O)O.O=C1CCCC2C3CCCN4CCCC(CN12)C34 (stereo not drawn)  log octanol-water partition coefficient (shake-flask; simulated body fluid; pH 7.4, 25 °C): 0.83
CC(C)[C@H](NC(=O)CNC(=O)[C@H](CCC(N)=O)NC(=O)[C@H](C)N)C(=O)O  subjects with adverse events (Possibly drug-related; human; 20 mg/kg, 3 days, thrice daily dosing): 0%
Cn1c2cc([S+](C)[O-])sc2c2cnn(Cc3cccc(N)c3)c(=O)c21 (stereo not drawn)  toxicity (nu/nu mouse, H1299 xenograft; 50 mg/kg twice daily, 7 weeks): not toxic
C(#Cc1cncc(OC[C@@H]2CCN2)c1)c1ccccc1  Tmax (male Sprague-Dawley rats, brain; oral, 3 mg/kg): ≤ 1 h
CC1=CC=c2ccc3c4c2[N]1[Re](=[C]=O)(=[C]=O)(=[C]=O)([C]#[N+]c1c(C)cccc1C)[N]4C(C)=CC=3.O=S(=O)([O-])C(F)(F)F  luminescence lifetime (PBS; pH 7.4, nitrogen-saturated): 6.8 µs
CNC(=O)[C@H](CCC(=O)NCCCC[C@@H]1NC(=O)[C@@H](Cc2ccccc2)NC(=O)[C@H](CC(=O)O)NC(=O)CNC(=O)[C@H](CCCNC(=N)N)NC1=O)NC(=O)CN1CCN(CC(=O)O)CCN(CC(=O)O)CCN(CC(=O)O)CC1 [indium-111 labelled]  radioactivity concentration (female BALB/c nude mice, SK-RC-52 xenograft, tumour; 0.5 µg, 2 h post injection, with: excess unlabelled DOTA-E-[c(RGDfK)]2 50 µg): decreased

A few entries again:
CCCCCCCC/C=C\CCCCCCCCOP(O)(O)=S.N  AUC(0-inf) (mouse, female, nonirradiated; sc, dose not given): 1150 ng·h/mL
CC(C)[C@H](NC(=O)[C@H](Cc1c[nH]c2ccccc12)NC(=O)[C@H](Cc1ccccc1)NC(=O)[C@@H](NC(=O)[C@@H](NC(=O)[C@H](CCCCN)NC(=O)[C@@H](N)CCCCN)C(C)C)C(C)C)C(=O)N[C@@H](CCCCN)C(=O)N[C@@H](Cc1ccccc1)C(=O)N[C@@H](CCCCN)C(N)=O  cytokine level (ELISA, measured: IL-1β; mouse, blood; iv, 500 µg/kg, 5 days): 0.47 ± 0.03 ng/mL
